# Experimental data of several laboratories.
# Protocols differ between the studies behind these lines. ± gives the spread as reported.
# HSP90AA1: Heat shock protein HSP 90-alpha (HSP90AA1, Homo sapiens, UniProt P07900)
# CNR1: Cannabinoid receptor 1 (CNR1, Homo sapiens, UniProt P21554)
# UniProt P21554, sequence (whole entry, looked up): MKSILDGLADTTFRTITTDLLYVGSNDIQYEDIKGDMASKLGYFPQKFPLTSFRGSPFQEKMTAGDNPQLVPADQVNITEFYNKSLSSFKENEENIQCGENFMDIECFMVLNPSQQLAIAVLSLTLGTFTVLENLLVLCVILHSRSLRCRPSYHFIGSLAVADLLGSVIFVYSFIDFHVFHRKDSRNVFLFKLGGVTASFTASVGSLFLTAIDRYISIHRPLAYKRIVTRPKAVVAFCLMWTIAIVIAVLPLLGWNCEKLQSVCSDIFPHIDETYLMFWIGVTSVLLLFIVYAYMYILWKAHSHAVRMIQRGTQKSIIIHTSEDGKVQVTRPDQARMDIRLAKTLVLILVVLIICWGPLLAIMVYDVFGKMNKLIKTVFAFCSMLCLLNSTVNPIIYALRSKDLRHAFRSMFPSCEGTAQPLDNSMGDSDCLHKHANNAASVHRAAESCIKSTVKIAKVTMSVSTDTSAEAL
# VHL with elongin B/C: von Hippel-Lindau disease tumor suppressor, with elongin B/C (VHL, Homo sapiens, UniProt P40337)
# UniProt P40337, sequence (whole entry, looked up): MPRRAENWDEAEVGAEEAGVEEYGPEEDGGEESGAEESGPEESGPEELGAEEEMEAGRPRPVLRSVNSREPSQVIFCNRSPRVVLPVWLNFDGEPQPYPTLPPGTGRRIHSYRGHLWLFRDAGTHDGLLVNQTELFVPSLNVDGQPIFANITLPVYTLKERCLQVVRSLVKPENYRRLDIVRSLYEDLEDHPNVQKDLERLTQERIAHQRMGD
# dncV: dncV (Vibrio cholerae, UniProt Q9KVG7)
# UniProt Q9KVG7, sequence (whole entry, looked up): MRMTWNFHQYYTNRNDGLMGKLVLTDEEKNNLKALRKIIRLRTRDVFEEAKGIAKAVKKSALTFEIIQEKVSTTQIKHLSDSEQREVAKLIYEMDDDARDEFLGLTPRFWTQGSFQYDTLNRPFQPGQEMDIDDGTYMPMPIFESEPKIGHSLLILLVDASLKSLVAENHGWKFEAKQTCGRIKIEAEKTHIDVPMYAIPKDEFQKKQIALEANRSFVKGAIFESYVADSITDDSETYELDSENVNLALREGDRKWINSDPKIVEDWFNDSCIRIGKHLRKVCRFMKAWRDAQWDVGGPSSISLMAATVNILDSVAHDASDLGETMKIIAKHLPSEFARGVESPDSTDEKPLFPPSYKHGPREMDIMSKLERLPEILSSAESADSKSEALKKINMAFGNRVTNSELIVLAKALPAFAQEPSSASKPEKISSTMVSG
# OPRD1 with Gi1: Delta-type opioid receptor, with Gi1 (OPRD1, Homo sapiens, UniProt P41143)
# UniProt P41143, sequence (whole entry, looked up): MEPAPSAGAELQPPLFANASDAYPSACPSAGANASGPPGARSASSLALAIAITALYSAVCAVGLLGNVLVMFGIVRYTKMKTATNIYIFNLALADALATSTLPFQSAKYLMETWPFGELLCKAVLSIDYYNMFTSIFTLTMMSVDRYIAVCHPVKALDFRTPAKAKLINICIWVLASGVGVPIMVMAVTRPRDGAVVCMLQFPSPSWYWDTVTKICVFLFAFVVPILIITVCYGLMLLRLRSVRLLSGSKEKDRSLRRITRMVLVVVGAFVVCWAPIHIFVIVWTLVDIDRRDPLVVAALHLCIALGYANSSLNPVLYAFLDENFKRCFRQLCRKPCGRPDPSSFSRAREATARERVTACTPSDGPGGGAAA
# Slc6a3: Sodium-dependent dopamine transporter (Slc6a3, Rattus norvegicus, UniProt P23977)
# UniProt P34972, sequence (whole entry, unmodified, looked up): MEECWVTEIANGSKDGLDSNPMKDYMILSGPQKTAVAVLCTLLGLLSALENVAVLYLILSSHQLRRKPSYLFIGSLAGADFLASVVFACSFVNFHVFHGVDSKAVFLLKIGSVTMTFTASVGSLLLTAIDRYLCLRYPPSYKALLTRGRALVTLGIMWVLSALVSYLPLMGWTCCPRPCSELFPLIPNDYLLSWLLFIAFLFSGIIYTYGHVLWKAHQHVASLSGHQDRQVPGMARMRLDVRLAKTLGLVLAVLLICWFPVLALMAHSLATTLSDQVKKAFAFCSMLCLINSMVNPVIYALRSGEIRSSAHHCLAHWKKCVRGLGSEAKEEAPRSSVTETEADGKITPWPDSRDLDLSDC
# UniProt P15682, sequence (whole entry, looked up): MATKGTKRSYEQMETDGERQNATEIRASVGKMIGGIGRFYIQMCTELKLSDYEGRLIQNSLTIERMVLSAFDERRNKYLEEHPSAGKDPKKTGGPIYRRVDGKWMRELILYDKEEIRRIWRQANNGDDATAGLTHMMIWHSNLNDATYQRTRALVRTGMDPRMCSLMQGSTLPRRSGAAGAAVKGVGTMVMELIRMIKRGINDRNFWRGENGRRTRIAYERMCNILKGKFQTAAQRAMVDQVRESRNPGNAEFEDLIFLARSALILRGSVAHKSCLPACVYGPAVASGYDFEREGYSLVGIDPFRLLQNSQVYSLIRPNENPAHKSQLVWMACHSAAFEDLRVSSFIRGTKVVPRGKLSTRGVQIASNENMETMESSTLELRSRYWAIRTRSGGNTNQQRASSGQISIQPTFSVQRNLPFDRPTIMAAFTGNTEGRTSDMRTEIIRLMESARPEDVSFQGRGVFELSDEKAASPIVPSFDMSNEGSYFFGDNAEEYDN
# UniProt P23977, sequence (whole entry, looked up): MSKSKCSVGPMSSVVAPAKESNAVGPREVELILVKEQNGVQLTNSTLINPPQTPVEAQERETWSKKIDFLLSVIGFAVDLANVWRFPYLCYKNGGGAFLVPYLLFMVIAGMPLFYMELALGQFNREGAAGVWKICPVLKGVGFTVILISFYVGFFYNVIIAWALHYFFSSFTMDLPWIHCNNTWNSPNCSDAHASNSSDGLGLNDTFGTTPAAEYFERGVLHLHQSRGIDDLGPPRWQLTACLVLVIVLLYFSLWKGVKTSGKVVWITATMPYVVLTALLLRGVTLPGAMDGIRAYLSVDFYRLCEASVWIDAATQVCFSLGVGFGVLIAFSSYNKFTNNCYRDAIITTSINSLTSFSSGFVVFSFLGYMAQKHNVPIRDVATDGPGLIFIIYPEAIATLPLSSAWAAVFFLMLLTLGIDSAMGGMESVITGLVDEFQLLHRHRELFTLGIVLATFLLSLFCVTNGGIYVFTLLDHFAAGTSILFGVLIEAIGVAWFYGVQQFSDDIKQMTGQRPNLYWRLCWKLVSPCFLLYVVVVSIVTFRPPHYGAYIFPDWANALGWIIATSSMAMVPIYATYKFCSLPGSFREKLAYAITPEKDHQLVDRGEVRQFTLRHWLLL
# UniProt P14416, sequence (whole entry, looked up): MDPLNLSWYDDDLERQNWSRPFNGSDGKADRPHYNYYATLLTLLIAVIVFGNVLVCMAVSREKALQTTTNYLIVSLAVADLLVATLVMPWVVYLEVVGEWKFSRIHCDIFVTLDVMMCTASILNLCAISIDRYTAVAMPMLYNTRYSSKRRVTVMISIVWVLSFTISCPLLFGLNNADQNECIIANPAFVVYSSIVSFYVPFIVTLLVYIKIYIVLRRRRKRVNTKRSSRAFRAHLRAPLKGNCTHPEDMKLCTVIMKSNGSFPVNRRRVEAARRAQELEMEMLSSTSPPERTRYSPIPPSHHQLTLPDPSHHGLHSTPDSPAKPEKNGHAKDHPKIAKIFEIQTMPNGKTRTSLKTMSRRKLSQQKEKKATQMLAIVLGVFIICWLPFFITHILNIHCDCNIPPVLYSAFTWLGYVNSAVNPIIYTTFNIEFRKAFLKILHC
# UniProt P0A988, sequence (whole entry, looked up): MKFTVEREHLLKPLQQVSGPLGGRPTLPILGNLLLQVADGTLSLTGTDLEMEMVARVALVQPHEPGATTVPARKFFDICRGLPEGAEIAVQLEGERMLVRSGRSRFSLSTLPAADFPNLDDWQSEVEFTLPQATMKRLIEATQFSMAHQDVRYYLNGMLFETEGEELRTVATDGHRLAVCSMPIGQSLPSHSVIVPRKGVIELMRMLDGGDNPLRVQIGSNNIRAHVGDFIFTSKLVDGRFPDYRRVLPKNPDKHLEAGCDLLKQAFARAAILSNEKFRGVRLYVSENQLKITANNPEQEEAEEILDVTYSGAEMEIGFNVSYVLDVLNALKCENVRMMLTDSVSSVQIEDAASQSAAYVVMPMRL
# UniProt P51449, sequence (whole entry, looked up): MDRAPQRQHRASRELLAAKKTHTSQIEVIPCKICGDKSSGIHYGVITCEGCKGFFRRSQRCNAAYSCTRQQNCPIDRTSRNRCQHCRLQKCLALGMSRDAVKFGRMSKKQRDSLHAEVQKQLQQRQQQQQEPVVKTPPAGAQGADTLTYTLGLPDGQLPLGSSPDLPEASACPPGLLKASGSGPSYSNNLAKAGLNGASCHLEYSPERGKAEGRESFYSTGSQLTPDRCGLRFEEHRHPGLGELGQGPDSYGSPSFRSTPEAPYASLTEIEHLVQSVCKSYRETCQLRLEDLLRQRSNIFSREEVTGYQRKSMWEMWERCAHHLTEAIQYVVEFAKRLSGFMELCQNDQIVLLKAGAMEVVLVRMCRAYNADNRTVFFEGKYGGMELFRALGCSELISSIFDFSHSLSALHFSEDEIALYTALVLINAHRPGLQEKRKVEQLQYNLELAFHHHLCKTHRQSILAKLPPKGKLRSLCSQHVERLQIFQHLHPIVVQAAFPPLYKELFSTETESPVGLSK
# UniProt P18508, sequence (whole entry, looked up): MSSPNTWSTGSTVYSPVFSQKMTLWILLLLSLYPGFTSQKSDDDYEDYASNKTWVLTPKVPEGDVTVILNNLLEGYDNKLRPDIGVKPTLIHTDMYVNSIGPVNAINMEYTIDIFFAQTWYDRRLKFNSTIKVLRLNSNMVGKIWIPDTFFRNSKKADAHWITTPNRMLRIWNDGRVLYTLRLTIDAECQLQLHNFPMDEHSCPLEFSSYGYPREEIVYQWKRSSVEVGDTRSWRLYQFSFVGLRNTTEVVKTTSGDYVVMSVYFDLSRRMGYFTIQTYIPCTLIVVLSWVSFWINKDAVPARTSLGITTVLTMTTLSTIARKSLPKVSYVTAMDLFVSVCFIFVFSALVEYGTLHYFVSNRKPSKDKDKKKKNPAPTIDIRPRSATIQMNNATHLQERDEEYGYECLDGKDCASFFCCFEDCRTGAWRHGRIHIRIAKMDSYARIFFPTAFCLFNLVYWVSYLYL
SMILES,target,assay,system,setting,how to read,endpoint,result
CC(=O)N[C@@H](CCC(=O)O)C(=O)N[C@@H](CCC(N)=O)C(=O)N[C@H](C(=O)N[C@@H](CCC(=O)O)C(=O)N[C@@H](CC(C)C)C(=O)N[C@@H](CCC(=O)O)C(=O)N[C@@H](Cc1ccccc1)C(=O)N[C@@H](CC(=O)O)C(=O)O)C(C)C,"Beta sliding clamp (Escherichia coli, UniProt P0A988)",HDX-MS,,"concentration not given, over 4 h, 37 °C",,deuterium uptake,173 Da
CCC(C)n1c(C(=O)Nc2cnc(C(=O)NC)n(CC(C)C)c2=O)ncc(NC(=O)c2ncc(NC(=O)c3ccccc3)c(=O)[nH]2)c1=O (centres unmarked),HSP90AA1,,,50 µM,,inhibition,14.7%
NC1=NN=Cc2ccccc2[O][V](=[O])[O]1.c1cnc2c(c1)ccc1cccnc12,"PTPN12 (Homo sapiens, UniProt Q05209)",,,,relative to: IC50 PTP–PEST over IC50 YopH,selectivity ratio,42.8
CCC(C)n1c(C(=O)Nc2cnc(C(=O)NC)n(CC(C)C)c2=O)ncc(NC(=O)c2ncc(NC(=O)c3ccccc3)c(=O)n2CCc2ccc(OCc3ccccc3)cc2)c1=O (centres unmarked),HSP90AA1,,,50 µM,,inhibition,55.2%
"CCCCCc1cc(O)c2c(c1)OC(C)(C)C1CCC(C)=CC21 (single isomer, unassigned; (-))","UGT1A1 (Homo sapiens, UniProt P22309)",estradiol glucuronidation,recombinant microsomes,"10 or 100 µM, with: β-estradiol",,inhibition,no inhibition
NCCCCCCCCN1CCC23c4c5ccc(O)c4OC2c2nc4ccccc4cc2CC3(O)C1C5 (centres unmarked),"Delta-type opioid receptor, with β-arrestin1 (OPRD1, Homo sapiens, UniProt P41143)",,human cells,,,Emax,27 ± 2%
CCCCCn1cc(C(=O)c2cccc3c2CC(C)(C)C3)c2ccccc21,CNR1,"Gαi1 engagement, agonist, BRET",HEK293T,,relative to: reference agonist,Emax,116 ± 4.9%
COc1ccc2cc(-c3c(C(=O)O)cccc3C(=O)O)ccc2c1,"Nucleoprotein (Influenza A virus, UniProt P15682)",,,NP–RNA complex,,particle size,15 to 17 nm
"CCOC(=O)C1C(OC(c2ccc(Cl)cc2)c2ccc(Cl)cc2)CC2CCC1N2C (single isomer, unassigned)","DRD2 (Homo sapiens, UniProt P14416)","binding, radioligand displacement",,inactive if below 75% at 10000 nM,,Ki,inactive
Cn1cnc2cc(-c3noc(-c4cccc(Cl)c4)n3)ccc21,VHL with elongin B/C,"binding, TR-FRET",,"10 µM, 90 min, with: BODIPY FL VH032",,inhibition,33.1%
Nc1nc2c([C@@H]3O[C@@H]4COP(=O)(O)O[C@H]5[C@@H](O)[C@H](c6snc7c(=O)[nH]c(N)nc67)O[C@@H]5COP(=O)(O)O[C@H]4[C@H]3O)snc2c(=O)[nH]1,dncV,"substrate, HPLC",,,,rate constant k1,1.26 ± 0.07 M⁻¹ s⁻¹
CC(C)C[C@@H](CN)CC(=O)O,"Voltage-dependent calcium channel subunit alpha-2/delta-1 (Rattus norvegicus, UniProt P54290)",[3H]gabapentin binding,rat cerebral cortex membranes,"1 µM, with: [3H]gabapentin 20 nM",,inhibition,19%
CCCCCn1cc(C(=O)c2ccc3ccccc3c2)c2ccccc21,"CNR2 (Homo sapiens, UniProt P34972, V261L)","Gαi1 engagement, agonist, BRET",,,relative to: reference agonist at wild-type CB2,Emax,64.5 ± 9.7%
N=C(N)NCCCCCCCN1CC[C@]23c4c5ccc(O)c4O[C@H]2c2nc4ccccc4cc2C[C@@]3(O)[C@H]1C5,OPRD1 with Gi1,,human cells,,,Emax,78 ± 2%
CNC(C)C(=O)c1ccc(Cl)c(Cl)c1 (centres unmarked),Slc6a3,"dopamine release, releaser",rat brain synaptosomes,with: [3H]dopamine,relative to: compound over methamphetamine,potency ratio,3.6 fold
Nc1nc2c([C@@H]3O[C@@H]4COP(=O)(O)O[C@H]5[C@@H](O)[C@H](c6scc7c(=O)[nH]c(N)nc67)O[C@@H]5COP(=O)(O)O[C@H]4[C@H]3O)scc2c(=O)[nH]1,dncV,"substrate, HPLC",,"500 µM, 37 °C",,intermediate degradation rate k3,2.91e-05 ± 1e-07 s⁻¹
CCC(C)n1c(C(=O)Nc2cnc(C(=O)NC)n(CC(C)C)c2=O)ncc(NC(=O)c2ncc(NC(=O)c3ccccc3)c(=O)n2C(C)C)c1=O (centres unmarked),HSP90AA1,,,50 µM,,inhibition,3.27%
N=C(N)NCCCN1CC[C@]23c4c5ccc(O)c4O[C@H]2c2nc4ccccc4cc2C[C@@]3(O)[C@H]1C5,"Delta-type opioid receptor, with β-arrestin2 (OPRD1, Homo sapiens, UniProt P41143)",,human cells,,,Emax,91 ± 8%
CCCCCn1cc(C(=O)c2cccc3ccccc23)c2ccccc21,"CNR2 (Homo sapiens, UniProt P34972, L182I)","Gαi1 engagement, agonist, BRET",,,relative to: reference agonist at wild-type CB2,Emax,15.1 ± 3.6%
CCC(C)n1c(C(=O)Nc2cnc(C(=O)NC)n(CC(C)C)c2=O)ncc(NC(=O)c2ncc(NC(=O)c3ccccc3)c(=O)n2Cc2ccc(O)cc2)c1=O (centres unmarked),HSP90AA1,,,50 µM,,inhibition,24.4%
N=C(N)NCCCCCCCN1CC[C@]23c4c5ccc(O)c4O[C@H]2c2[nH]c4ccccc4c2C[C@@]3(O)[C@H]1C5,OPRD1 with Gi1,,human cells,,,Emax,40 ± 2%
COC(=O)c1ccc(-n2c(C)cc(/C=C3/C(=O)NC(=S)N(c4cccc(Cl)c4Cl)C3=O)c2C)c(C)c1,"RORC (Homo sapiens, UniProt P51449)",cell-based,,concentration not given,,activity class,active
Nc1nc2c([C@@H]3O[C@H](COP(=O)(O)OP(=O)(O)OP(=O)(O)O)[C@@H](O)[C@H]3O)snc2c(=O)[nH]1,dncV,"substrate, HPLC",,"500 µM, 37 °C",,cyclization rate constant k2,0.0034 ± 0.0002 s⁻¹
Cc1sc2c(c1C)C(c1ccc(Cl)cc1)=N[C@@H](CC(=O)OC(C)(C)C)c1nnc(C)n1-2,VHL with elongin B/C,TR-FRET,,"2.1 pM to 30 µM, 90 min",,inhibition,inactive
CNC(C)C(=O)c1cccc([N+](=O)[O-])c1 (centres unmarked),Slc6a3,"dopamine release, releaser",rat brain synaptosomes,with: [3H]dopamine,relative to: compound over methamphetamine,potency ratio,25 fold
O=C1CC(=O)N(c2ccccc2)c2cc(Cl)ccc2N1,"Gabrg2/Gabra3, with β3 subunit (Rattus norvegicus, UniProt P18508+P20236)","positive allosteric modulator, whole-cell patch clamp",HEK293,"α3β3γ2 subunits, with: GABA at EC10",,Emax,245 ± 29%
C#C[C@@]12CC[C@H]([C@H](C)CCCC(C)C)[C@@]1(C)CC[C@H]1C2=CCC2C(C)(C)[C@@H](O)CC[C@@]21C (some centres unmarked),"Lanosterol 14-alpha-demethylase (Trypanosoma brucei brucei, UniProt Q385E8)",spectral binding,Trypanosoma brucei,type I spin shift,,maximal high-spin heme content,35 to 40%
CCCCCn1c2ccccc2c2cc(C(=O)c3cccc4ccccc34)ccc21,CNR1,"cAMP inhibition, agonist, BRET",HEK293 expressing CNR1,with: forskolin,relative to: forskolin alone,Emax,48.5%
CCC(=O)N1CCc2cc(-c3ccc(C(=O)NC(C)Cc4ccco4)cc3)ccc21 (centres unmarked),VHL with elongin B/C,"binding, TR-FRET",,"10 µM, 90 min, with: BODIPY FL VH032",,inhibition,31.1%
COc1ccc2cc(C(CC(=O)O)CC(=O)O)ccc2c1,"Nucleoprotein, monomeric (Influenza A virus, UniProt P15682)",,,1 µM,,inhibition,16%
CCCCCn1cc(C(=O)c2ccc3c(c2)CC(C)(C)C3)c2ccccc21,CNR1,"β-arrestin recruitment, agonist, BRET",HEK-293T,,,Emax,53.7%
CCCCCc1cc(O)c2c(c1)OC(C)(C)c1cc(O)c(C)cc1-2,"Si (Rattus norvegicus, UniProt P23739)",inhibitor,,,,Ki',122 µM
